Measurements from different studies.
Every numbered part comes from another study and shows a few of its results, in no order. Values joined by “and” are separate records of one study, mostly repeats; a detail may differ.
Sequence of UniProt P19525 (whole entry, looked up): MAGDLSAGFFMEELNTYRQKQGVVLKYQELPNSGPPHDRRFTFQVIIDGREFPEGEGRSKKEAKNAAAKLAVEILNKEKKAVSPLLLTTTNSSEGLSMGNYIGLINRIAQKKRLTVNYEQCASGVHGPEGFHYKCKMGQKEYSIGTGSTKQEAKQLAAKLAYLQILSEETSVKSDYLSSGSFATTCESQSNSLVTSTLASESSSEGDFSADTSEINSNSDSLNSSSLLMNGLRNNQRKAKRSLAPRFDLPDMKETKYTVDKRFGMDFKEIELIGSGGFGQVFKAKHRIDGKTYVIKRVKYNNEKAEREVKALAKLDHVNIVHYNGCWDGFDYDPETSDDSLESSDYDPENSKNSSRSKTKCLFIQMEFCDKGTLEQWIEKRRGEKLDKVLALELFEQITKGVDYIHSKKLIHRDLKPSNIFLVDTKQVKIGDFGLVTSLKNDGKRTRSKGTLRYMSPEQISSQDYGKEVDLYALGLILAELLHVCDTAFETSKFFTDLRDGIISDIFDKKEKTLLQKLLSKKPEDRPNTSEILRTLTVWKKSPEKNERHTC
Sequence of UniProt Q8NE63 (whole entry, looked up): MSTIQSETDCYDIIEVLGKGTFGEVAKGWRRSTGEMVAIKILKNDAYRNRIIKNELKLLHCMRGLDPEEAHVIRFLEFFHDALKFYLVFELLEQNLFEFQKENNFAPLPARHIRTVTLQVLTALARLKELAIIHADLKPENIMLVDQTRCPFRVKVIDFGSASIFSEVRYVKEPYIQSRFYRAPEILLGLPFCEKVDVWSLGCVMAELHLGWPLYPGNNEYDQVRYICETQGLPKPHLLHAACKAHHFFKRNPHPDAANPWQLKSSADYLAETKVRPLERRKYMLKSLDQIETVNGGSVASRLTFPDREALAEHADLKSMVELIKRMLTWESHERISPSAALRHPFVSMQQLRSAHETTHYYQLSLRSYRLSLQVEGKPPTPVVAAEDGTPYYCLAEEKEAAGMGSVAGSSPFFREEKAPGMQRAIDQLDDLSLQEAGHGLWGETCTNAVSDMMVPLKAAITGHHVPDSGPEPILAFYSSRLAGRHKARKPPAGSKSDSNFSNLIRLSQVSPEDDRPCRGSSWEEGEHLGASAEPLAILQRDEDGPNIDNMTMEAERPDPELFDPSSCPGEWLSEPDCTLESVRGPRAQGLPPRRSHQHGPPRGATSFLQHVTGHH
Sequence of UniProt Q13237 (whole entry, looked up): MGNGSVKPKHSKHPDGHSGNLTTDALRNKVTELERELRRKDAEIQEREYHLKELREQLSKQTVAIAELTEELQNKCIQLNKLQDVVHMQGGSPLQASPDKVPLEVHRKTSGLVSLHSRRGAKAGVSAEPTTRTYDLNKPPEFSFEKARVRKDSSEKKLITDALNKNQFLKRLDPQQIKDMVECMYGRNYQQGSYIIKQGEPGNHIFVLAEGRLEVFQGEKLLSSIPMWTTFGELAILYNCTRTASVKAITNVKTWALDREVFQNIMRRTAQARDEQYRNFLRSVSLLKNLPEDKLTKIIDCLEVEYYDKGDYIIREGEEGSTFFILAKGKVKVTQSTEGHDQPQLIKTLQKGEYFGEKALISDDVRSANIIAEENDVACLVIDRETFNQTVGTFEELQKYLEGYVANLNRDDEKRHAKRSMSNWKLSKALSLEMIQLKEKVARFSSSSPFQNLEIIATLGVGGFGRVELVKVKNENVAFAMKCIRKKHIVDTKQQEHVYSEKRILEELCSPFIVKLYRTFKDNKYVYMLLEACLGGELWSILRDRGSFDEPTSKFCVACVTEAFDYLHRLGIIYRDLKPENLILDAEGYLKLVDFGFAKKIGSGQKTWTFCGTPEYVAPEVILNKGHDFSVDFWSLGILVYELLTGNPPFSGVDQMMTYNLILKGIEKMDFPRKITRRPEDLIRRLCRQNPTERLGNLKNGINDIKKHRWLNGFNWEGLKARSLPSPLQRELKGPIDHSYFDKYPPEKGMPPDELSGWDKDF
Sequence of UniProt Q16853 (whole entry, looked up): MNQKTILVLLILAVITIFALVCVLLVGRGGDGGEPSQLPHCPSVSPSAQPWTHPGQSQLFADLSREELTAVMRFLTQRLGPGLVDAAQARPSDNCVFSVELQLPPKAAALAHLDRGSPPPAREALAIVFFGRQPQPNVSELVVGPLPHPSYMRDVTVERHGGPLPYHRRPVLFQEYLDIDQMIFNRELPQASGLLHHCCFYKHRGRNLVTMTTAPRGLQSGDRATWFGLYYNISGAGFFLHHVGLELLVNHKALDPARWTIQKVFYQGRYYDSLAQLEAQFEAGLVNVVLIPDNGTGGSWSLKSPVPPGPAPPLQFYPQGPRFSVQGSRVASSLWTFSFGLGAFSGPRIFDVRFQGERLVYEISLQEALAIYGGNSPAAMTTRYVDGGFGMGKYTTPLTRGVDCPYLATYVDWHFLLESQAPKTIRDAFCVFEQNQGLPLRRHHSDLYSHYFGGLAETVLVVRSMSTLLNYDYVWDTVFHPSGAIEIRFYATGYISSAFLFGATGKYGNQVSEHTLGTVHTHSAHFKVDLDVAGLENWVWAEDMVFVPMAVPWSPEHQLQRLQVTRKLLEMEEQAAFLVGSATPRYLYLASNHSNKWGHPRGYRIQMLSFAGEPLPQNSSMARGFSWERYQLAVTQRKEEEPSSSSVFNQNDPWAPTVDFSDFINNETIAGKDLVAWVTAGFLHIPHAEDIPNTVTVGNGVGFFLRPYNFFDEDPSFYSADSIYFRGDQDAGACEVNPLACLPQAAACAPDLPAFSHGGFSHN

Set 1
SMILES: NC/C(=C\F)COc1ccc(Cn2c(=S)[nH]c(=O)c3[nH]cnc32)cc1
Observed: enzyme activity
MPO: Myeloperoxidase (MPO, Homo sapiens, UniProt P05164)
Sequence of UniProt P05164 (whole entry, looked up): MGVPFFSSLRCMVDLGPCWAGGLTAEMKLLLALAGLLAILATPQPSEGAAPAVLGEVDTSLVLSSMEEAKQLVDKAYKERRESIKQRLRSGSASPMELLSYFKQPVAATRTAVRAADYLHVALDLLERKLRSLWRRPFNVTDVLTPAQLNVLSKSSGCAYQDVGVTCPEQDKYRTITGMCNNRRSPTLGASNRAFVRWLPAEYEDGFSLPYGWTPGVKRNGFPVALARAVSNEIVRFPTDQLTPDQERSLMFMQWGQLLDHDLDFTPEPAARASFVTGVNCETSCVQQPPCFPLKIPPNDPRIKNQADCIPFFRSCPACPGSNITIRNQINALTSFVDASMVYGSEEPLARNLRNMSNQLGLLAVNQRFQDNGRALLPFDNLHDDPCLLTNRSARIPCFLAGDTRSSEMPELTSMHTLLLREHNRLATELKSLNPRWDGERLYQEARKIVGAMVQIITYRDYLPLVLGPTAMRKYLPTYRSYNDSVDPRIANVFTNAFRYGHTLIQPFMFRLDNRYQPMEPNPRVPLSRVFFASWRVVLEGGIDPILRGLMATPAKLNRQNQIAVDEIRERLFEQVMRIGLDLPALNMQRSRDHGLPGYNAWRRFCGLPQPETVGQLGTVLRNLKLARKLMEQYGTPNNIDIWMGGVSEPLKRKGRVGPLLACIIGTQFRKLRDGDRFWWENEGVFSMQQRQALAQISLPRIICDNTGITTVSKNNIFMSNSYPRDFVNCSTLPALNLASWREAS
It gave 11.5% and 4.14% for inhibition (MPO; 1.235 µM).
MPO; 0.1372 µM — inhibition: -6.73% and -7.5%.
The inhibition was 80.4% and 77.5% (MPO; 300 µM).
The inhibition was 104% (AOC3 (Homo sapiens, UniProt Q16853); inhibitor, fluorescence; 3 µM).
MPO; inhibitor, fluorescence; 30 µM — inhibition: 49.5%.

Set 2
Compound: O=C(Nc1ccccc1)c1cccc(Oc2ccc3nccn3n2)c1
Observed: cell-free assay
Technique: competition with immobilised ligand
Tested at: 1 µM
DDR1 (Homo sapiens, UniProt Q08345) — remaining binding: 55%.
For FLT1 (Homo sapiens, UniProt P17948): remaining binding read 21%.
DDR2 (Homo sapiens, UniProt Q16832) — remaining binding: 58%.

Set 3
SMILES: CC[C@@]1(c2cccc(C(F)(F)F)c2)C2=C(Nc3n[nH]cc31)[C@H](F)C(C)(C)CC2=O (single isomer, unassigned)
Tested at: 1 µM
The remaining binding was 100% (MET (Homo sapiens, UniProt P08581, Y1235D); binding, competition with immobilised ligand).
For DAPK2 (Homo sapiens, UniProt Q9UIK4); binding, competition with immobilised ligand: remaining binding read 100%.
The remaining binding was 81% (EIF2AK2 (Homo sapiens, UniProt P19525); kinase binding, KINOMEscan; baseline: DMSO control).
For HIPK4 (Homo sapiens, UniProt Q8NE63); binding, competition with immobilised ligand: remaining binding read 99%.
It gave 45% for remaining binding (MTOR (Homo sapiens, UniProt P42345); binding, competition with immobilised ligand).
It gave 100% for remaining binding (TESK1 (Homo sapiens, UniProt Q15569); binding, competition with immobilised ligand).
The remaining binding was 100% (MAST1 (Homo sapiens, UniProt Q9Y2H9); kinase binding, KINOMEscan; baseline: DMSO control).
It gave 75% for remaining binding (NTRK3 (Homo sapiens, UniProt Q16288); kinase binding, KINOMEscan; baseline: DMSO control).
It gave 100% for remaining binding (Myosin-IIIb (MYO3B, Homo sapiens, UniProt Q8WXR4); kinase binding, KINOMEscan; baseline: DMSO control).
STK32C (Homo sapiens, UniProt Q86UX6); binding, competition with immobilised ligand — remaining binding: 73%.
It gave 100% for remaining binding (EPHA8 (Homo sapiens, UniProt P29322); kinase binding, KINOMEscan; baseline: DMSO control).
The remaining binding was 95% (PRKG2 (Homo sapiens, UniProt Q13237); kinase binding, KINOMEscan; baseline: DMSO control).
It gave 0.55% for remaining binding (GSK3A (Homo sapiens, UniProt P49840); kinase binding, KINOMEscan; baseline: DMSO control).
It gave 100% for remaining binding (AKT3 (Homo sapiens, UniProt Q9Y243); kinase binding, KINOMEscan; baseline: DMSO control).
For MAP4K2 (Homo sapiens, UniProt Q12851); kinase binding, KINOMEscan; baseline: DMSO control: remaining binding read 100%.

Set 4
SMILES: C[C@@H]1CN(c2ccc(-c3cc(C(=O)NCCOCCOCCOCCOCCNC(=O)Cn4cc(-c5[nH]cc(C(=O)N[C@@H](CC(N)=O)c6ccc(F)c(Cl)c6)c5-c5ccc(Cl)cc5F)cn4)ccc3F)cc2NC(=O)c2c[nH]c(=O)cc2C(F)(F)F)C[C@H](C)N1C
Observed: thermal unfolding
Technique: differential scanning fluorimetry
Tested at: 5.5 µM
Direction: higher = more unfolded
WDR5: WD repeat-containing protein 5 (WDR5, Homo sapiens, UniProt P61964)
DCAF1: DDB1- and CUL4-associated factor 1 (DCAF1, Homo sapiens, UniProt Q9Y4B6)
Sequence of UniProt Q9Y4B6 (whole entry, looked up): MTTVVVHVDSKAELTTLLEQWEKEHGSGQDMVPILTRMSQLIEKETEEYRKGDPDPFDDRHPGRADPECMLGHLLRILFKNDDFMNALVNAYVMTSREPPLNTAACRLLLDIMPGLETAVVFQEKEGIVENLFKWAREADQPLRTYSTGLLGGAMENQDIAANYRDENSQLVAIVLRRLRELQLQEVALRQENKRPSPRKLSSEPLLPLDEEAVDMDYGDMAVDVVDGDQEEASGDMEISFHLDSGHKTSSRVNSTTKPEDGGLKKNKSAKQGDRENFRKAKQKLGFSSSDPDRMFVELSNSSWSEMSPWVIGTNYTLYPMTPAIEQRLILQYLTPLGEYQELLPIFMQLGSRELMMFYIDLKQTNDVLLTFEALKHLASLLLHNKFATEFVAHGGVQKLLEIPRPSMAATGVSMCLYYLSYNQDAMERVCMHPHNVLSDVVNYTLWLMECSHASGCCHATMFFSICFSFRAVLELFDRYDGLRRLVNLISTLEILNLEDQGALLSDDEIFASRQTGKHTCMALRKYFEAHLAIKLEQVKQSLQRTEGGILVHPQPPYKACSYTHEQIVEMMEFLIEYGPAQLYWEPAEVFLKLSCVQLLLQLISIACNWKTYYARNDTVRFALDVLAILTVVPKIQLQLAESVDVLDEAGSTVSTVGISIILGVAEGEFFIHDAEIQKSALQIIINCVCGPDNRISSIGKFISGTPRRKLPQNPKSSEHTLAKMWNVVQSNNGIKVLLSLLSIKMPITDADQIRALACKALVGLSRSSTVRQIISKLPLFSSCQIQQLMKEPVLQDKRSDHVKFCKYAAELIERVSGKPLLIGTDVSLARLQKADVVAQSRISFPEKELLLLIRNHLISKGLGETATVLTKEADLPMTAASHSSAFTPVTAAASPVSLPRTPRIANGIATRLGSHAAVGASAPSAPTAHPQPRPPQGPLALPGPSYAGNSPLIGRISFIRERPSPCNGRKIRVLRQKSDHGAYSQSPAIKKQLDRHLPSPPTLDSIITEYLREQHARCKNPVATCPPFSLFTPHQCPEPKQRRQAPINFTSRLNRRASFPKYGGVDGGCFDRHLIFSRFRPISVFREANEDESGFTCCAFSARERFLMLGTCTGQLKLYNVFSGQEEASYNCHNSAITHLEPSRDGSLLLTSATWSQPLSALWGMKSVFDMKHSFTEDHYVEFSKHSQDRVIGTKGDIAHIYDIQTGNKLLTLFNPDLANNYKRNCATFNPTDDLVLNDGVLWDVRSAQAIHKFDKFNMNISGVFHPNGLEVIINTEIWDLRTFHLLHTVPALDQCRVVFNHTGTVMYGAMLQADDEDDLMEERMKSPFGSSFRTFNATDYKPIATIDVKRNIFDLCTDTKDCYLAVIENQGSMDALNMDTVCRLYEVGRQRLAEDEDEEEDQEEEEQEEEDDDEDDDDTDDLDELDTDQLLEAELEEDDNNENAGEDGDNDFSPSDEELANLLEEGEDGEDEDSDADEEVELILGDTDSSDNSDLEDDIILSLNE
It gave 14400 a.u. for “SYPRO Orange fluorescence” (WDR5; 50.6 °C).
DCAF1; 77.41 °C — “SYPRO Orange fluorescence”: 46600 a.u.
The “SYPRO Orange fluorescence” was 14100 a.u. (WDR5; 54.01 °C).
For DCAF1; 48.6 °C: “SYPRO Orange fluorescence” read 13700 a.u.
It gave 14300 a.u. for “SYPRO Orange fluorescence” (WDR5; 35 °C).
It gave 9590 a.u. for “SYPRO Orange fluorescence” (WDR5; 61.41 °C).
The “SYPRO Orange fluorescence” was 8610 a.u. (DCAF1; 34.2 °C).
It gave 14400 a.u. for “SYPRO Orange fluorescence” (WDR5; 52.61 °C).
The “SYPRO Orange fluorescence” was 34500 a.u. (DCAF1; 90.61 °C).
The “SYPRO Orange fluorescence” was 19100 a.u. (DCAF1; 54.81 °C).
It gave 11000 a.u. for “SYPRO Orange fluorescence” (DCAF1; 42 °C).

Some of these lines once more (set 3):
It gave 100% for remaining binding (EPHA8 (Homo sapiens, UniProt P29322); kinase binding, KINOMEscan; baseline: DMSO control).
The remaining binding was 95% (PRKG2 (Homo sapiens, UniProt Q13237); kinase binding, KINOMEscan; baseline: DMSO control).
It gave 0.55% for remaining binding (GSK3A (Homo sapiens, UniProt P49840); kinase binding, KINOMEscan; baseline: DMSO control).
It gave 100% for remaining binding (AKT3 (Homo sapiens, UniProt Q9Y243); kinase binding, KINOMEscan; baseline: DMSO control).
